Measured values pooled from the literature.
Each line is one published result; not all experiments were run side by side.

| SMILES | system | conditions | endpoint | result |
| --- | --- | --- | --- | --- |
| O=C(CN1CCN(c2cc3c(cc2F)c(=O)c(C(=O)O)cn3C2CC2)CC1)Nc1ccc(Cl)cc1 | mouse, plasma | intravenous, 3.75 mg/kg | AUC | 100000 ng·h/mL |
| CC(C)(CCCC/C=C/CCCCCC(C)(C)C(=O)O)C(=O)O | CD-1 mouse, plasma | intravenous, 10 mg/kg | AUC(0-t) | 138000 ng·h/mL |
| CCCCCCCC(=O)NC[C@H](NC(=O)[C@H](CO)NC(=O)CN)C(=O)N[C@@H](Cc1ccccc1)C(=O)N[C@@H](CC(C)C)C(=O)N[C@@H](CO)C(=O)N1CCC[C@H]1C(=O)N[C@@H](CCC(=O)O)C(=O)N[C@@H](Cc1c[nH]cn1)C(=O)N[C@@H](CCC(N)=O)C(=O)N[C@@H](CCCNC(=N)N)C(=O)N[C@H](C(=O)N[C@@H](CCC(N)=O)C(=O)N[C@H](C(=O)N[C@@H](CCCNC(=N)N)C(=O)N1CCC[C@H]1C(=O)N1CCC[C@H]1C(=O)N[C@@H](Cc1c[nH]cn1)C(=O)N[C@@H](CCCCN)C(=O)N[C@@H](C)C(=O)N1CCC[C@H]1C(=O)N[C@@H](Cc1c[nH]cn1)C(=O)N[C@H](C(=O)N[C@H](C(=O)O)C(C)C)C(C)C)C(C)C)C(C)C | mouse, plasma | intraperitoneal, 1.2 mg/kg | AUC(0-inf) | 10.4 ng·h/mL |
| CC(C)[C@H]1NC(=O)C[C@H]2/C=C/CCSSC[C@@H](NC1=O)C(=O)N[C@H](Cc1cccc3ccccc13)C(=O)NCC(=O)O2 | nude mouse, blood | oral, 12 mg/kg | AUC(0-inf) | 0.557 ng·h/mL |
| CSCC[C@H](NC(=O)CNC(=O)[C@H](CC(=O)O)NC(=O)[C@@H](NC(=O)[C@@H](NC(=O)[C@@H](NC(=O)CNC(=O)[C@H](CCC(=O)O)NC(=O)[C@H](CCSC)NC(=O)[C@H](CC(=O)O)NC(=O)[C@H](C)NC(=O)[C@H](C)NC(=O)[C@@H](NC(=O)[C@H](CO)NC(=O)[C@@H](N)CC(C)C)[C@@H](C)O)C(C)C)C(C)C)[C@@H](C)O)C(=O)N[C@@H](C)C(=O)N[C@@H](CO)C(=O)NCC(=O)N[C@@H](CC(C)C)C(=O)N[C@@H](CC(=O)O)C(=O)N[C@@H](CCCCN)C(=O)N[C@@H](CC(=O)O)C(=O)N[C@@H](Cc1ccc(O)cc1)C(=O)N[C@@H](CC(C)C)C(=O)N[C@@H](CCCCN)C(=O)N1CCC[C@H]1C(=O)N[C@@H](CC(=O)O)C(=O)N[C@@H](CC(=O)O)C(=O)O | male CD-1 mouse, serum | intravenous, 480 mg/kg | AUC(0-t) | 278000 ng·h/mL |
| CS(C)(=O)=Nc1ccc(-c2ccc(-c3nc4cc(O[C@@H]5CO[C@H]6[C@@H]5OC[C@H]6O)[nH]c4cc3F)cc2)cc1 | female C57BL/6 mouse, plasma | intravenous, 3 mg/kg | AUC | 2850 ng·h/mL |
| C[C@@](O)(C(F)F)[C@H](NC(=O)c1ccc(C#CC#CC2CC2)cc1)C(=O)NO | mouse, plasma | intraperitoneal, 40 mg/kg | AUC(0-inf) | 24200 ng·h/mL |
| O=c1cc(-c2ccccc2)oc2c(Br)c(O)c(O)c(O)c12 | C57BL/6 mouse, plasma | oral, 150 mg/kg, single dose | AUC(0-inf) | 8260 ng·h/mL |
| CCCC[C@@H]1NC(=O)[C@H](Cc2ccc(O)cc2)NC(=O)[C@@H]2CCCN2C(=O)[C@H](CC(=O)O)NC(=O)[C@H](C)NC(=O)[C@H](Cc2ccccc2)NC(=O)[C@@H]2CSCCC(=O)N3CN(CN(C3)C(=O)CCSC[C@@H](C(=O)N[C@@H](C)C(N)=O)NC1=O)C(=O)CCSC[C@H](NC(C)=O)C(=O)N[C@@H](CC(C)(C)C)C(=O)N1CCC[C@H]1C(=O)N[C@@H](CCC(=O)O)C(=O)N[C@H](CCCCNC(=O)CCc1cn(CCOCCOCCOCCN(CCOCCOCCOCCC(=O)N[C@H]3CSCCC(=O)N4CN5CN(C4)C(=O)CCSC[C@H](NC(=O)[C@@H](CC(=O)O)NC(=O)[C@H](Cc4cccc6ccccc46)NC(=O)[C@@H]4CCCN4C3=O)C(=O)N[C@@H](CCSC)C(=O)N[C@@H](CCCCNC(=N)N)C(=O)N[C@@H](CC(=O)O)C(=O)N[C@@H](Cc3c[nH]c4ccccc34)C(=O)N[C@@H](CO)C(=O)N[C@@H]([C@@H](C)O)C(=O)N3CCC[C@H]3C(=O)N3C[C@H](O)C[C@H]3C(=O)N[C@@H](Cc3c[nH]c4ccccc34)C(=O)N[C@H](C(N)=O)CSCCC5=O)CCOCCOCCOCCn3cc(CCC(=O)NCCCC[C@H]4NC(=O)[C@H](CCC(=O)O)NC(=O)[C@@H]5CCCN5C(=O)[C@H](CC(C)(C)C)NC(=O)[C@@H](NC(C)=O)CSCCC(=O)N5CN6CN(C5)C(=O)CCSC[C@H](NC(=O)[C@H](Cc5ccc(O)cc5)NC(=O)[C@@H]5CCCN5C4=O)C(=O)N[C@@H](Cc4ccccc4)C(=O)N[C@@H](C)C(=O)N[C@@H](CC(=O)O)C(=O)N4CCC[C@H]4C(=O)N[C@@H](Cc4ccc(O)cc4)C(=O)N[C@@H](CCCC)C(=O)N[C@H](C(=O)N[C@@H](C)C(N)=O)CSCCC6=O)nn3)nn1)C(=O)N1CCC[C@H]1C(=O)N[C@@H](Cc1ccc(O)cc1)C(=O)N2 | mouse, plasma | intraperitoneal, 15 mg/kg | AUC(0-inf) | 2.02 µM·h |

For quick reference, copied from above:
| SMILES | system | conditions | endpoint | result |
| --- | --- | --- | --- | --- |
| CC(C)[C@H]1NC(=O)C[C@H]2/C=C/CCSSC[C@@H](NC1=O)C(=O)N[C@H](Cc1cccc3ccccc13)C(=O)NCC(=O)O2 | nude mouse, blood | oral, 12 mg/kg | AUC(0-inf) | 0.557 ng·h/mL |
